# Measured values of several laboratories.
# Parts stem from different laboratories: compare values within a part only.

# Study 1
# Target: Sal-like protein 4, full length isoform A (SALL4, Homo sapiens, UniProt Q9UJQ4, residues 1-1053)
# UniProt Q9UJQ4, sequence (whole entry, looked up): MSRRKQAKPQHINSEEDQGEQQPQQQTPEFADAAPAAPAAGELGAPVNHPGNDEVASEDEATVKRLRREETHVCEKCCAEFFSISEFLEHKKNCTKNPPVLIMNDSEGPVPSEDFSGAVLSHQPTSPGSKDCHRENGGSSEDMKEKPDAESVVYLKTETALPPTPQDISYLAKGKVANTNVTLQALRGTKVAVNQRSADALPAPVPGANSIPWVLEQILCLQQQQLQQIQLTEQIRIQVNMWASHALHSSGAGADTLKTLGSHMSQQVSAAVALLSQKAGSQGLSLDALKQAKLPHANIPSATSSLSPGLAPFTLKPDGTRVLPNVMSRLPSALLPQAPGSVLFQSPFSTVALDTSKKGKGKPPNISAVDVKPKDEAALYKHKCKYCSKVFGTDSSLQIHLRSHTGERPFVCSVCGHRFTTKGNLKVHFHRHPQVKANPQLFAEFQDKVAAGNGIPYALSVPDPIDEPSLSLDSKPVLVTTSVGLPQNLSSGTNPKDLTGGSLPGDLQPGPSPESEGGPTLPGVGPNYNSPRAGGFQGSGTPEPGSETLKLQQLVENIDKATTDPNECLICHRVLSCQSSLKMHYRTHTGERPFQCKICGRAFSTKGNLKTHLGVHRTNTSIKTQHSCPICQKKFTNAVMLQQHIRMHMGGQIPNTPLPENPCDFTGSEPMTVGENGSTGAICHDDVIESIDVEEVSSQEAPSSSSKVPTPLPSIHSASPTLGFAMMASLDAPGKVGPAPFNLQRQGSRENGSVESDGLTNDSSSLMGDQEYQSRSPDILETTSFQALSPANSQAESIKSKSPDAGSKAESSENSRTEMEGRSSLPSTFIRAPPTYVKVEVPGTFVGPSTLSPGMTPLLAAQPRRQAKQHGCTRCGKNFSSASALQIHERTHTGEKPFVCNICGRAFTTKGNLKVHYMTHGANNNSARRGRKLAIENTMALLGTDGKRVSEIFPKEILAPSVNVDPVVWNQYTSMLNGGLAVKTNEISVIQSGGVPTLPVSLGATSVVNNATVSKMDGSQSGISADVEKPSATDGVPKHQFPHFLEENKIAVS
# Technique: universal PBM
# Form: double-stranded DNA, one strand shown
# Medium: in vitro
# Concentration: 600 nM
# Setting: 8-mer, flanks averaged, mean of replicates
# Direction: higher = stronger binding
Oligonucleotide,E-score
CAAAGCCC,-0.25
GGTGAGGA,-0.0806
CTTCGTCA,0.0259
GTGGCCCA,-0.326
ATGGCTAC,0.13
ACACAGTA,0.106
CTACATTC,0.143
ACGGTCCT,-0.279
GCTCAAAC,-0.0857
GAGTTTCA,-0.0235
GCGATTGA,-0.0667

# Study 2
# Target: Histone acetyltransferase KAT6A, winged helix 1, GST fusion (KAT6A, Homo sapiens, UniProt Q92794, residues 1-85)
# Technique: protein binding microarray
# Form: double-stranded DNA, one strand shown
# Medium: in vitro
# Concentration: not given
# Setting: 8-mer, flanks averaged, mean of 2 arrays, mostly near background
# Baseline: not given
# Direction: higher = stronger binding
# Construct (chain): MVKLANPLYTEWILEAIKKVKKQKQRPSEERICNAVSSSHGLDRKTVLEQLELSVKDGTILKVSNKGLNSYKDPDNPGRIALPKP
Oligonucleotide,E-score
GCGCGTCA,0.324
AGGATCTA,-0.16
ACGCGAAA,0.131
GGCGTACC,0.192
AGCGATTG,-0.0245
GCTTCTCA,-0.00912
AAAATACC,-0.0316
GTCATCCA,-0.138
AGCATACT,-0.0351
CACCGACC,0.181

# Study 3
# Target: RING finger protein unkempt homolog, zinc fingers 1-6, SBP tag (UNK, Homo sapiens, UniProt Q9C0B0, residues 30-357)
# UniProt Q9C0B0, sequence (30-357, looked up): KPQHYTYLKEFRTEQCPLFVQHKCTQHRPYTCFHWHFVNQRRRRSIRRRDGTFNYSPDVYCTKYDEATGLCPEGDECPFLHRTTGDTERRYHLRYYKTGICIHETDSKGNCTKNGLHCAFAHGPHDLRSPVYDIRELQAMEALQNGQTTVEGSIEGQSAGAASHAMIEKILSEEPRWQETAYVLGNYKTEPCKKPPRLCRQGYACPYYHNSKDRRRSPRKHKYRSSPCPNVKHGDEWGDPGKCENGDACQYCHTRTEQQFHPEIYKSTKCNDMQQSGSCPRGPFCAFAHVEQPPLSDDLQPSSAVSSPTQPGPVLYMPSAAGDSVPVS
# Technique: RNA Bind-n-Seq
# Form: RNA
# Medium: in vitro
# Concentration: 100 nM
# Setting: RNA with constant flanks, vertebrate orthologous sites, ends assumed
# Baseline: input RNA pool
# Direction: higher = stronger binding
# Shared flanks, not repeated: GGGAGUUCUACAGUCCGACGAUC … CAACAGAGGAUUGAGCAUCA
Oligonucleotide,bound/input enrichment
CAGUCAUGGAGAAAAAGAUAUUAAAAUAAUUUCAUGGCACUGAUGUUAAUUCUAGUCUAUUAGUUUUAUAAAAGUUAGGGUUCUUAUUUAGGAACAACAGGAAGUGACUGUUAAGGAGAA,1.66 ratio
UUCAGGCACAACUGACUGGUUCACAACAUUCCCUACAUAGUUAUCUAGCAAAUACAAGUGUGGUUAAUUUUCAGGAAACAACCAGGCAGUCAUCUUUACCAUGUAGCCCAGUUGGAGAUU,0.836 ratio
GCCUCCAACAGGCACAUUCAGGGAGAGAGAAGCUUCAGGGAACAUAAAUUUAUUUAAUAGUAGUGAUCAUGAAGUACAAAUUUGAUAUAAUUGAAUAAUUUGUGAGGGGUGAUAAAUUUU,0.979 ratio
AUAUUUGCUCAAUUGAAUUAUUUAGAUAAAAGAAAUUUAUUGUUUAUGUUUUCUUUCAAGCAGUCUAUCCUAUAUUUAUCCAUUUGCAAAUGCCAGUUUUGUGUGGAUUCUUAGCAUAUC,0.754 ratio
UGCACACGCCGCUAUCACCAGUGUCAACUAUCGCUUUCCAAAUUUCAUUAUGAAUCAUUUUAGUGCUUCCUAUCUCCUACCUUUCCUACCACUUUCAAUGAUGAAAAAUAGUCUAAGUUC,1.83 ratio

# Single results of other studies
Substance,target,test,test system,setting,how to read,measurement,value
"PhoQ, residues 284 288 289 292 302 303 TASMAF","PhoP, residues 12 14 15 18 19 NYFTV (Escherichia coli, UniProt P23836)","Sort-seq, refers to: YFP reporter",E. coli,"PhoQ-PhoP variant library, added: 10 µM Mg2+","baseline: high Mg2+ state, higher = stronger signaling",fold induction,8.55

# Some of these lines once more (study 3):
Oligonucleotide,bound/input enrichment
GCCUCCAACAGGCACAUUCAGGGAGAGAGAAGCUUCAGGGAACAUAAAUUUAUUUAAUAGUAGUGAUCAUGAAGUACAAAUUUGAUAUAAUUGAAUAAUUUGUGAGGGGUGAUAAAUUUU,0.979 ratio
AUAUUUGCUCAAUUGAAUUAUUUAGAUAAAAGAAAUUUAUUGUUUAUGUUUUCUUUCAAGCAGUCUAUCCUAUAUUUAUCCAUUUGCAAAUGCCAGUUUUGUGUGGAUUCUUAGCAUAUC,0.754 ratio
UGCACACGCCGCUAUCACCAGUGUCAACUAUCGCUUUCCAAAUUUCAUUAUGAAUCAUUUUAGUGCUUCCUAUCUCCUACCUUUCCUACCACUUUCAAUGAUGAAAAAUAGUCUAAGUUC,1.83 ratio
